Measurements from different studies.
A part holds a random share of what one study measured. Substitutions count along the parent as printed.

Set 1 — target: CCND2, cyclin fold, Cln2 fusion (human); method: yeast growth competition, sequencing; sample: yeast; setting: weak parent motif; reference: not given; reading: higher = stronger binding; measurement: normalised enrichment score
Starting sequence: MASTL docking peptide (human); PMIAKNLMCELDE; partner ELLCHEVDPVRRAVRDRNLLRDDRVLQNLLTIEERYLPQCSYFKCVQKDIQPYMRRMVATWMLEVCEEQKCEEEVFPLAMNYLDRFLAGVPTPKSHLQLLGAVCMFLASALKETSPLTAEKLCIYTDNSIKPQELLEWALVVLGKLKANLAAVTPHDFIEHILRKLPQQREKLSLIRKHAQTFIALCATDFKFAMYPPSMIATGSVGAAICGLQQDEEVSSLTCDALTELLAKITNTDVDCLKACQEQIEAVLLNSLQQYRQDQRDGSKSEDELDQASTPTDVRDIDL
Variant = PMIAKNLMNELDE [C9N]; value = -0.267
Variant = PMIAKNLMCEFDE [L11F]; value = -0.265
Variant = PWIAKNLMCELDE [M2W]; value = -0.0209
Variant = PMQAKNLMCELDE [I3Q]; value = -0.104
Variant = PMIWKNLMCELDE [A4W]; value = 0.344
Variant = PMIAKNLMCEWDE [L11W]; value = 0.217
Variant = PMIAKNQMCELDE [L7Q]; value = -0.13
Variant = PMIAKNLMCEYDE [L11Y]; value = -0.0791
Variant = PMEAKNLMCELDE [I3E]; value = 0.0855

Set 2 — method: RNA Bind-n-Seq; form: RNA; sample: in vitro; tested at: 200 nM; setting: whole 134-nt RNA, ends assumed; added: 150 mM LiCl; reference: input library; reading: higher = stronger binding; measurement: log2 enrichment; library: 7-deaza-guanosine replaces G
Target: Fragile X messenger ribonucleoprotein 1, C-terminal low-complexity region (Fmr1, Mus musculus, UniProt P35922)
Constant ends, left off below: GGGAGUUCUACAGUCCGACGAUC … UGGAAUUCUCGGGUGUCAAGG
Oligonucleotide = UCCUGUGCUACACAUCGUAUGUACCGAAUCGGGUUUUUUUGGGUUUGGGAAAAAAAGGGAAAGUAUUAUGUUACGCCGUUCGGAUCUGCA; value = -1.29
Oligonucleotide = CAAGUCCUGUGCUACACAUCGUAUGUACCGAAUCGGCCCGGGCCCGGGGCCCGGGGAAAGUAUUAUGUUACGCCGUUCGGAUCUGCACUU; value = -1.92
Oligonucleotide = GUCCUGUGCUACACAUCGUAUGUACCGAAUCGGGGAAAAGGGGAAAAGGGGAAAAGGGGAAAGUAUUAUGUUACGCCGUUCGGAUCUGCA; value = 0.93
Oligonucleotide = UUGCAGGAGCCGCCGCGCCUCGGCCUAGCAUGUCGGAAGCGGGCGAGGAGCAGCCCAUGGAGACGACGGGCGCCACCGAGAACGGACAUG; value = -1.08
Oligonucleotide = UAACUUUAGAGGAGGAUCUGAUGGAUAUGGCAGUGGACGUGGAUUUGGGGAUGGCUAUAAUUGGUAUGGAGGAGGACCUGGAGGUGGCAA; value = 0.718
Oligonucleotide = CAAGUCCUGUGCUACACAUCGUAUGUACCGAAUCGGGUUUGGGUUUGGGAAAGGGAAAGUAUUAUGUUACGCCGUUCGGAUCUGCACUUC; value = -1.22
Oligonucleotide = CCUGUGCUACACAUCGUAUGUACCGAAUCGGGGCCCCCCCGGCCCCCCCGGGCCCCCCCGGAAAGUAUUAUGUUACGCCGUUCGGAUCUG; value = 0.256
Oligonucleotide = AGUCCUGUGCUACACAUCGUAUGUACCGAAUCGGGCCCCCGGCCCCCGGGCCCCCGGAAAGUAUUAUGUUACGCCGUUCGGAUCUGCACU; value = -2.19

Set 3 — method: protein binding microarray; form: double-stranded DNA, one strand shown; sample: in vitro; tested at: not given; reference: not given; reading: higher = stronger binding; measurement: E-score
Target: Histone acetyltransferase KAT6A, winged helix 2, GST fusion (KAT6A, Homo sapiens, UniProt Q92794, residues 85-181)
Setting: 8-mer, flanks averaged, mean of 2 arrays, mostly near background
Residues (chain): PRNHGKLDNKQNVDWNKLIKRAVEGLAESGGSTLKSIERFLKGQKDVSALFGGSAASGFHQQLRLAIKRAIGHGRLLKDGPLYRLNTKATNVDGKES
Oligonucleotide = GTAATAGA; value = -0.14
Oligonucleotide = AAGCCAGA; value = 0.0506
Oligonucleotide = AGTAAAGA; value = -0.0856
Oligonucleotide = GCTGAATA; value = -0.019
Oligonucleotide = GATCTGCC; value = 0.0741
Oligonucleotide = CCGAAGAG; value = 0.111
Oligonucleotide = CAATGCCG; value = 0.0638
Oligonucleotide = GCACCTTA; value = -0.0642
Oligonucleotide = CCCAGTAC; value = -0.0469
Oligonucleotide = GCGCTTTA; value = 0.169

Other studies, line by line
Molecule = PhoQ, residues 284 288 289 292 302 303 TYGVAM; target = PhoP, residues 12 14 15 18 19 SMASL (Escherichia coli, UniProt P23836); test = Sort-seq, refers to: YFP reporter; system = E. coli; conditions = PhoQ-PhoP variant library, added: 10 µM Mg2+; scale = reference: high Mg2+ state, higher = stronger signaling; measurement = fold induction; value = 3.1

Some of these lines once more (set 2):
Oligonucleotide = CAAGUCCUGUGCUACACAUCGUAUGUACCGAAUCGGCCCGGGCCCGGGGCCCGGGGAAAGUAUUAUGUUACGCCGUUCGGAUCUGCACUU; value = -1.92
Oligonucleotide = UCCUGUGCUACACAUCGUAUGUACCGAAUCGGGUUUUUUUGGGUUUGGGAAAAAAAGGGAAAGUAUUAUGUUACGCCGUUCGGAUCUGCA; value = -1.29
